# Published values from different studies.
# ± marks the error that the study gave.
SMILES,test system,setting,half-life [h]
COc1ccc2c(c1)[C@]13CCCC[C@@H]1[C@H](C2)N(C)CC3,"C57BL/6 mouse, plasma",oral,~1
NC(CCl)=NCCC[C@H](NC(=O)c1ccc(-c2ccccc2)cc1)c1nc2ccccc2[nH]1,"C57BL/6 mouse, plasma",1 mg/kg,1.75
N#C[C@@]1(n2ccc(N)nc2=O)O[C@H](CO)[C@@H](O)[C@H]1O,CD-1 mouse,"oral, 30 mg/kg",1.75
COc1cccc2c1CCCC2CCCN1CCN(C2CCCCC2)CC1 (centres unmarked),"CD-1 mouse, male, plasma","intraperitoneal, 3 mg/kg",2.82
Cc1ncc2n1-c1ccc(Cl)cc1C(c1ccccc1F)=NC2,"wild-type mouse, plasma","intravenous, 0.3 mg/kg, 14-day CMC pretreatment",0.297 ± 0.0183
C[C@H](O)c1cnc(NS(=O)(=O)c2ccc(Cl)c(Cl)c2)nc1,"hepatocytes, HSD17B13 knockout with AAV control, C57BL/6J mouse, male",1 µM,> 12.5
O=c1c2cc(Cl)c(CO)cc2[nH]c(=S)n1Cc1cncnc1,"mouse, plasma",intravenous,0.469
COc1cc2c(cc1OC)CN(CCc1ccc(NC(=O)c3cccc4c(=O)c5cccc(OC)c5[nH]c34)cc1)CC2,"CD-1 mouse, male, lung","intraperitoneal, 30 mg/kg",24.5
Nc1ccc2cc3ccc(N)cc3nc2c1,"male CD-1 mouse, lungs","intravenous, 15 mg/kg",1.11
Cc1ccccc1C(=O)NN=Cc1ccc(O)c(Br)c1,"C3H/HeN mouse IN model, plasma","intravenous, 0.8 mg/kg",1.29
CC(=O)c1c(C)c2cnc(Nc3ccc(C4CCN(CCS(C)(=O)=O)CC4)cn3)nc2n(C2CCCC2)c1=O,"nude mouse, MDA-MB-435S xenograft, blood","oral, 100 mg/kg",4.25
CCCCCCCC(=O)N[C@@H](CCCCN)C(=O)N[C@@H](CCCCN)C(=O)N[C@@H](C)C(=O)N[C@@H](CC(C)C)C(=O)N[C@@H](CCCCN)C(=O)N[C@@H](CC(C)C)C(=O)N[C@@H](C)C(=O)N[C@@H](CCCCN)C(=O)N[C@@H](CCCCN)C(=O)N1CCC[C@H]1C(=O)N[C@@H](CC(C)C)C(=O)N[C@@H](CCCCN)C(=O)N[C@@H](CC(C)C)C(=O)N[C@@H](CC(C)C)C(=O)N[C@@H](CCCCN)C(N)=O,"mouse ICR CD1 female, whole blood","intravenous bolus, 3 mg/kg",0.1 ± 0.02
CC/C(=C(\c1ccccc1)c1ccc(OCCN(C)C)cc1)c1ccccc1,"CD-1 mouse, male, lung","intraperitoneal, 30 mg/kg",7.17
CC(c1cncnc1)n1c(=S)[nH]c2ccc(Cl)cc2c1=O (centres unmarked),"mouse, plasma",intravenous,1.6

# For quick reference, copied from above:
SMILES,test system,setting,half-life [h]
Cc1ccccc1C(=O)NN=Cc1ccc(O)c(Br)c1,"C3H/HeN mouse IN model, plasma","intravenous, 0.8 mg/kg",1.29
COc1cccc2c1CCCC2CCCN1CCN(C2CCCCC2)CC1 (centres unmarked),"CD-1 mouse, male, plasma","intraperitoneal, 3 mg/kg",2.82
